Measured values collected from several papers.
Each line is one published result; not all experiments were run side by side. Several values in a cell are separate wells, animals, samples, runs or records. ± gives the spread as reported.

Compound | tested on | assay | test system | conditions | scale | endpoint | result
N#CC(C#N)=NNc1cccc(Cl)c1 | Cryptosporidium parvum | parasite growth, imaging | HCT-8 | 24 h | – | EC50 | 5000 nM
Cc1cc(/C=C/C#N)cc(C)c1-n1cnc2cnc(Nc3ccc4cc(/C=C/C#N)ccc4c3)nc21 | HIV-1 | viral replication, single-round infection | RT mutant V106A | – | – | EC50 | > 5000 nM
CNC(=O)[C@@H](NC(=O)[C@H](CC(C)C)[C@H](O)C(=O)NO)C(C)(C)C | Daboia russelii venom proteases (SVMP) | protease activity, inhibitor | AP population | 0.1 µM, with: azocasein substrate | reference: venom alone | remaining activity | 98.4% and 96.9% and 99.1%
Cn1c(Cn2ccc(C(F)(F)F)c(Oc3cc(Cl)cc(C#N)c3)c2=O)n[nH]c1=O | HIV-1 | viral replication, single-round infection | RT mutant G190S | – | – | EC50 | 4.6 ± 1.2 nM
Cc1cn([C@H]2C[C@H](N=[N+]=[N-])[C@@H](CO)O2)c(=O)[nH]c1=O | HIV-1 | viral replication | human PBMC, subtype F 93BR020, dual-tropic clinical isolate | – | – | EC50 | 7.64 ± 1.56 nM
Cc1noc2c(NC3CCOCC3)cc(-c3cccc(C(F)(F)F)c3)nc12 | SARS-CoV-2 | cytopathic effect, cell-based CPE | USA_WA1/2020 | round 1, 5-point dilution | – | AC50 | 15800 nM
Cc1cc(/C=C/C#N)cc(C)c1Nc1nc(Nc2ccc3cc(C#N)ccc3c2)ncc1N | HIV-1 | viral replication, single-round infection | RT mutant V106A/F227L/L234I | – | – | EC50 | < 5.4 nM
O=c1ccn([C@@H]2O[C@H](CO)[C@@H](O)[C@H]2O)c(=S)[nH]1 | Japanese encephalitis virus | viral replication | BHK-21 | – | – | EC50 | 4800 nM
Cc1cc(/C=C/C#N)cc(C)c1Nc1nc(Nc2ccc(/C=C/C#N)cc2)ncc1N | HIV-1 | viral replication, single-round infection | RT mutant M184V | – | – | EC50 | 1.1 ± 0.2 nM
COC(CN1CCn2cc(C(=O)NCc3ccc(F)cc3F)c(=O)c(O)c2C1=O)OC | human immunodeficiency virus 1 | single-round vector infection | integrase G118R | – | – | EC50 | > 33 nM
C[C@H](NP(=O)(OC[C@@]1(F)O[C@@H](n2ccc(N)nc2=O)C(F)(F)[C@@H]1O)Oc1ccccc1)C(=O)OCc1ccccc1 (stereo partly shown) | varicella-zoster virus | viral replication, plaque reduction | HEL fibroblasts, Oka, TK+ | – | – | EC50 | 2000 to 3000 nM
O=C(NCc1ccc(F)cc1F)c1cn2c(c(O)c1=O)C(=O)NCC2 | human immunodeficiency virus 1 | single-round vector infection | integrase R263K | – | – | EC50 | 184 ± 36.5 nM
NC(=O)c1nc(F)c[nH]c1=O | Japanese encephalitis virus | viral replication | BHK-21 | 72 h | – | EC50 | 80000 nM
CCCC(=O)OCSc1ccccc1C(=O)NCCC(N)=O | HIV-1 | viral replication | human PBMC, subtype E 93TH073, dual-tropic clinical isolate | – | – | EC50 | 1850 ± 1240 nM
N=C(N)c1ccc2cc(OC(=O)c3ccc(N=C(N)N)cc3)ccc2c1 | Daboia russelii venom proteases | proteolytic activity, inhibitor | – | 100 µM, with: azocasein substrate | – | inhibition | 10 to 15%
O=C1Nc2ccc(Cl)cc2[C@@](C#CC2CC2)(C(F)(F)F)O1 | HIV-1 | viral replication, single-round infection | RT mutant K101P/V179I | – | – | EC50 | 35.1 ± 2.9 nM
CC(C)CCCC(C)CCN1CCn2cc(C(=O)NCc3ccc(F)cc3F)c(=O)c(O)c2C1=O (stereo not shown) | human immunodeficiency virus 1 | single-round vector infection | integrase R263K | – | – | EC50 | 68.2 ± 8 nM
NC(=O)CCNC(=O)c1ccccc1S | HIV-1 | viral replication | human PBMC, subtype G G3, CCR5-tropic clinical isolate | – | – | EC50 | 3940 ± 400 nM
CC[C@H](C)[C@H](NC(=O)[C@H](CC(C)C)NC(=O)[C@H](Cc1c[nH]c2ccccc12)NC(=O)[C@H](CCC(N)=O)NC(=O)[C@@H](NC(=O)[C@H](Cc1ccccc1)NC(=O)[C@H](C)NC(=O)[C@H](CCCCNC(=O)COCCOCCNC(=O)COCCOCCNC(=O)CC[C@H](NC(=O)CCCCCCCCCCCCCCCCCCC(=O)O)C(=O)O)NC(=O)[C@H](CCC(N)=O)NC(=O)[C@H](C)NC(=O)[C@@H](NC(=O)[C@H](CCCCN)NC(=O)[C@H](CC(=O)O)NC(=O)[C@H](CC(C)C)NC(=O)C(C)(C)NC(=O)[C@@H](NC(=O)[C@H](CO)NC(=O)[C@H](Cc1ccc(O)cc1)NC(=O)[C@H](CC(=O)O)NC(=O)[C@H](CO)NC(=O)[C@@H](NC(=O)[C@H](Cc1ccccc1)NC(=O)[C@@H](NC(=O)CNC(=O)[C@H](CCC(=O)O)NC(=O)C(C)(C)NC(=O)[C@@H](N)Cc1ccc(O)cc1)[C@@H](C)O)[C@@H](C)O)[C@@H](C)CC)[C@@H](C)CC)C(C)C)C(=O)N[C@@H](C)C(=O)NCC(=O)NCC(=O)N1CCC[C@H]1C(=O)N[C@@H](CO)C(=O)N[C@@H](CO)C(=O)NCC(=O)N[C@@H](C)C(=O)N1CCC[C@H]1C(=O)N1CCC[C@H]1C(=O)N1CCC[C@H]1C(=O)N[C@@H](CO)C(N)=O | – | item: Pyrexia | healthy subjects | 5/5/8/10 mg titrated, multiple ascending dose | – | subjects with adverse events | 0%
CC(C)=CCC/C(C)=C/Cn1ccn2cc(C(=O)NCc3ccc(F)cc3F)c(=O)c(O)c2c1=O | human immunodeficiency virus 1 | single-round vector infection | integrase R263K | – | – | EC50 | 122 ± 5.5 nM
CC1CCN(CCCNC(=O)c2cc(Sc3ccc(F)cc3)nc3ccccc23)CC1 | SARS-CoV-2 | cytopathic effect, cell-based CPE | USA_WA1/2020 | round 2, 5-point dilution | – | efficacy | 97.6%
Cc1cc2cc(C#N)ccc2c(C)c1Nc1ccnc(Nc2ccc(C#N)cc2)n1 | HIV-1 K103N/Y181C | viral replication | T-cells | – | – | EC50 | < 10 nM
Cn1cnc(Cn2c(=O)[nH]/c(=N\c3cc4cn(C)nc4cc3Cl)n(Cc3cc(F)c(F)cc3F)c2=O)n1 | – | – | human, all renal function groups | oral, 375 mg, hypertriglyceridaemia TEAE, Moderate severity | – | patients with adverse event | 3.1%
COCC(C)n1ccn2cc(C(=O)NCc3ccc(F)cc3F)c(=O)c(O)c2c1=O (stereo not shown) | human immunodeficiency virus 1 | single-round vector infection | integrase G118R | – | – | EC50 | 21.5 ± 1.3 nM
Cc1cc(/C=C/C#N)cc(C)c1-n1cnc2cnc(Nc3ccc4cc(C#N)ccc4c3)nc21 | HIV-1 | viral replication, single-round infection | RT mutant K101E/M184V | – | – | EC50 | < 5 nM
Nc1ncnc2c([C@@H]3N[C@H](CO)[C@@H](O)[C@H]3O)c[nH]c12 | Nipah henipavirus | viral replication | HeLa, Malaysia | 50 µM | – | inhibition | 39.4%
COC(Cn1ccn2cc(C(=O)NCc3ccc(F)cc3F)c(=O)c(O)c2c1=O)OC | human immunodeficiency virus 1 | single-round vector infection | integrase R263K | – | – | EC50 | 4.4 ± 0.2 nM
Cc1cc(/C=C/C#N)cc(C)c1-n1cnc2cnc(Nc3ccc(/C=C/C#N)cc3)nc21 | HIV-1 | viral replication, single-round infection | RT mutant K101P | – | – | EC50 | 280 ± 27 nM

A few entries again:
Compound | tested on | assay | test system | conditions | scale | endpoint | result
N=C(N)c1ccc2cc(OC(=O)c3ccc(N=C(N)N)cc3)ccc2c1 | Daboia russelii venom proteases | proteolytic activity, inhibitor | – | 100 µM, with: azocasein substrate | – | inhibition | 10 to 15%
O=C(NCc1ccc(F)cc1F)c1cn2c(c(O)c1=O)C(=O)NCC2 | human immunodeficiency virus 1 | single-round vector infection | integrase R263K | – | – | EC50 | 184 ± 36.5 nM
CC(C)CCCC(C)CCN1CCn2cc(C(=O)NCc3ccc(F)cc3F)c(=O)c(O)c2C1=O (stereo not shown) | human immunodeficiency virus 1 | single-round vector infection | integrase R263K | – | – | EC50 | 68.2 ± 8 nM
